Published values from different studies.
Target: Adenosine receptor A2a (ADORA2A, Homo sapiens, UniProt P29274)

SMILES	read-out	mode	technique	cell line	concentration	quantity	result
Cc1[nH]nc2c1N=C(c1ccccc1Cl)c1cnc(N3CCOCC3)cc1N2	ligand displacement	–	–	–	10 µM	inhibition	58%
CC(=O)c1cnc(N)nc1N1CC[C@H]1c1nn2ccc(Cl)c2c(=O)n1-c1ccccc1	ligand displacement	–	radioligand	–	10 µM	inhibition	21%
OCC1OC(n2cnc3c(NCc4ccc(Br)s4)ncnc32)C(O)C1O (stereo not shown)	binding	–	radioligand binding	CHO cells	–	Hill coefficient	0.72
CO[C@@H](C)c1c(NC(=O)Nc2cnc(-n3nccn3)c(C(F)(F)F)c2)cnc2sc(C)nc12	ligand displacement	–	radioligand	–	10 µM	inhibition	30.7%
CCC(=O)N(C)c1ccc(Cl)c(Cl)c1	ligand displacement	–	radioligand	–	10 µM	inhibition	< 10%
COc1ccc(C#CC2=C[C@H]3C[C@@]4(OC(=O)C=C24)[C@H]2CC[C@H](C(OC)OC)N32)cc1	ligand displacement	–	radioligand	–	10 µM	inhibition	4%
C[Si](C)(C)C[C@H](CN)CC(=O)O	ligand displacement	–	radioligand	–	250 µM	inhibition	-5%
O=C1c2sc(-c3ccc(N4CCC(F)C4)nc3F)nc2CCN1c1cccnc1 (stereo not shown)	ligand displacement	–	radioligand	–	1 µM	inhibition	6%
COCC(=O)N1CCc2cc(-c3csc(NC(=O)c4cc(OC)cc(OC)c4)n3)ccc21	ligand displacement	–	radioligand	–	10 µM	inhibition	24%
O=C(O)COc1cccc(NC(=O)c2cc(-c3cccc(F)c3)ccc2F)c1	ligand displacement	–	radioligand	–	10 µM	inhibition	2%
C[Si]1(C[C@H](CN)CC(=O)O)CCCC1	ligand displacement	–	radioligand	–	70 µM	inhibition	-8%
COc1ncc2nc(C)n(Cc3ncc(S(N)(=O)=O)cc3F)c2c1-c1ccccc1	–	antagonist	cell-based	–	10 µM	inhibition	1.17%
Cn1ccc2cc(-n3c(=O)[nH]c4sc5c(c4c3=O)CCCC5)ccc21	ligand displacement	–	radioligand	–	10 µM	inhibition	4%
